Experimental data from different studies.
Parts stem from different laboratories: compare values within a part only. Values joined by “and” are separate records of one study, mostly repeats; a detail may differ.
UniProt Q99683, sequence (whole entry, looked up): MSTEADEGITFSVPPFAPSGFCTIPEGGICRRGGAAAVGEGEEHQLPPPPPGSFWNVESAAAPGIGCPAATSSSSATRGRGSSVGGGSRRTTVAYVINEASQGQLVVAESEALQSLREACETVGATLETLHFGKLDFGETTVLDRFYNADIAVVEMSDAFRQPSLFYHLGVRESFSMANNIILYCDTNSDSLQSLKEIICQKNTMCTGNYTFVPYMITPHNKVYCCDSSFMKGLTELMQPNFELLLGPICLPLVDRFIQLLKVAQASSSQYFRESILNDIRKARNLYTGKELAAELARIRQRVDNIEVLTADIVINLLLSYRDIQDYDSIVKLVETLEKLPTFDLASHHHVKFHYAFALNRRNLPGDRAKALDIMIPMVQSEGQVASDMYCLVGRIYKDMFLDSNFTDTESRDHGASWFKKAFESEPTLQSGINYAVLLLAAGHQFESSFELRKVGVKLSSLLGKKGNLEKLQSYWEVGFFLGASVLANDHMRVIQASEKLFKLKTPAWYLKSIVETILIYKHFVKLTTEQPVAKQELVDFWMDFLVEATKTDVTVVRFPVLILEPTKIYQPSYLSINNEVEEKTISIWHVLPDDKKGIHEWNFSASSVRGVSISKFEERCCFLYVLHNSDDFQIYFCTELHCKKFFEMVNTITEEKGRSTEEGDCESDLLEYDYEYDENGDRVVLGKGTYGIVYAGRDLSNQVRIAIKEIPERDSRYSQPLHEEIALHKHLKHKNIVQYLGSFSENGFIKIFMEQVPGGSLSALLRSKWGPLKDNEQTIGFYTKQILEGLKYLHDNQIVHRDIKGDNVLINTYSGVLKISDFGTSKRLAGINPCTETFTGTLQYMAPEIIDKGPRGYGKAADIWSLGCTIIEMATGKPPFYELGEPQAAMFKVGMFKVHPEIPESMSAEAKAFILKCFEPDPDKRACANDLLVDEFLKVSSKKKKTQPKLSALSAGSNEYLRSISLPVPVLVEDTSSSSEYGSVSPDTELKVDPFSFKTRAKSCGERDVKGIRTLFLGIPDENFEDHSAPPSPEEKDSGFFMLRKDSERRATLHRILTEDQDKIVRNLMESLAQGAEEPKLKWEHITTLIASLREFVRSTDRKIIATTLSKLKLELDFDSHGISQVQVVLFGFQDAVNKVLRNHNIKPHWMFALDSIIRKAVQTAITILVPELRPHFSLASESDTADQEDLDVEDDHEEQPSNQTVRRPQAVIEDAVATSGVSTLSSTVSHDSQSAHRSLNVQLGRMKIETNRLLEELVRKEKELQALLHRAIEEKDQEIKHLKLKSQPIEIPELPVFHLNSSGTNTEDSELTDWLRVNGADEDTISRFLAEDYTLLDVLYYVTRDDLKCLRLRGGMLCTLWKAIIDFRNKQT
UniProt P07332, sequence (whole entry, looked up): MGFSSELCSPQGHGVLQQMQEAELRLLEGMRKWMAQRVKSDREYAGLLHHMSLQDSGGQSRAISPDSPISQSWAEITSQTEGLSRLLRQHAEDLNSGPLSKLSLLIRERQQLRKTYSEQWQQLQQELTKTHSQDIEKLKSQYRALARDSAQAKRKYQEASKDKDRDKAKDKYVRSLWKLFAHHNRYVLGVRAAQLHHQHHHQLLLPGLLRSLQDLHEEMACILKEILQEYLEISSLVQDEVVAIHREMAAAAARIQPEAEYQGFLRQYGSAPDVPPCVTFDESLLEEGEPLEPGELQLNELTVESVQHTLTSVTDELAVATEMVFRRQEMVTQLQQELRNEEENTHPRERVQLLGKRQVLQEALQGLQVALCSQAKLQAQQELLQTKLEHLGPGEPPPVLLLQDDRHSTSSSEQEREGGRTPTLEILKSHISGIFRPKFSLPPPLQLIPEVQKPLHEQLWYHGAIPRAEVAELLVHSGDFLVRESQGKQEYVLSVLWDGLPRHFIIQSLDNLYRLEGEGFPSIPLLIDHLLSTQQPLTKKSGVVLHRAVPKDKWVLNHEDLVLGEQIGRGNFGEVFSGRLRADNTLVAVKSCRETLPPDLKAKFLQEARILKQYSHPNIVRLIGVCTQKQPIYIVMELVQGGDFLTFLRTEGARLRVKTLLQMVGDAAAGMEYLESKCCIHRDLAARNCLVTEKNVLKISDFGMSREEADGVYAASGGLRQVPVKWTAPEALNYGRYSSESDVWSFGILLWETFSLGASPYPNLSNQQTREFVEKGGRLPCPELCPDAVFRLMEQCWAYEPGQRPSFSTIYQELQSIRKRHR
UniProt Q02763, sequence (whole entry, looked up): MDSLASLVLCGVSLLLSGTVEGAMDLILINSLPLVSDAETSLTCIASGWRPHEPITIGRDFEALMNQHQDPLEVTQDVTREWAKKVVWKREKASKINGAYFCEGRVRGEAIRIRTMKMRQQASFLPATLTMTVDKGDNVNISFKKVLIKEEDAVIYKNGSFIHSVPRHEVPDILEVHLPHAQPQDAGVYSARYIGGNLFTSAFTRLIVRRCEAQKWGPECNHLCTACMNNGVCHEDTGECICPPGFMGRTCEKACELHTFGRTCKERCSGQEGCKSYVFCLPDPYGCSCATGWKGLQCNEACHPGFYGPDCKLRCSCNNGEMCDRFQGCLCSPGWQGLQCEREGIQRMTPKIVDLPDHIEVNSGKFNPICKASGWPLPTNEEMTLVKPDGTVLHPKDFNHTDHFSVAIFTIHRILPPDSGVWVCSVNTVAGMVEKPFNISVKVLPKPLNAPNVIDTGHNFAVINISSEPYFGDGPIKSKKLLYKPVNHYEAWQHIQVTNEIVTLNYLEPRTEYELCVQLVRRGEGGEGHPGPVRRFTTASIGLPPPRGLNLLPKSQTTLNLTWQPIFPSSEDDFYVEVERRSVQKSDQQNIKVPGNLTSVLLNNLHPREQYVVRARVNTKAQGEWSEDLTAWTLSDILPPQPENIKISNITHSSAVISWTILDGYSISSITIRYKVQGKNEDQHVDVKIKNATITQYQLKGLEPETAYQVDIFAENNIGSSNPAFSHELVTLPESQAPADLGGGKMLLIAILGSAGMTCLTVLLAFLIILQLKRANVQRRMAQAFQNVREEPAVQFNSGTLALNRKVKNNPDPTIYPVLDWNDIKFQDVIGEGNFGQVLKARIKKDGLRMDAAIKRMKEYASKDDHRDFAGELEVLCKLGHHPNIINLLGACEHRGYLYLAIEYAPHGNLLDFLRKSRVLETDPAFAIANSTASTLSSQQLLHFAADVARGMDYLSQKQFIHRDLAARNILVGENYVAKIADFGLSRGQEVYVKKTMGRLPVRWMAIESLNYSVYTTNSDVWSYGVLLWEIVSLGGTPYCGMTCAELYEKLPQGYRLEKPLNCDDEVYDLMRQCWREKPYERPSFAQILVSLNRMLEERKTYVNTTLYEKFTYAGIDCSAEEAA
UniProt P21709, sequence (whole entry, looked up): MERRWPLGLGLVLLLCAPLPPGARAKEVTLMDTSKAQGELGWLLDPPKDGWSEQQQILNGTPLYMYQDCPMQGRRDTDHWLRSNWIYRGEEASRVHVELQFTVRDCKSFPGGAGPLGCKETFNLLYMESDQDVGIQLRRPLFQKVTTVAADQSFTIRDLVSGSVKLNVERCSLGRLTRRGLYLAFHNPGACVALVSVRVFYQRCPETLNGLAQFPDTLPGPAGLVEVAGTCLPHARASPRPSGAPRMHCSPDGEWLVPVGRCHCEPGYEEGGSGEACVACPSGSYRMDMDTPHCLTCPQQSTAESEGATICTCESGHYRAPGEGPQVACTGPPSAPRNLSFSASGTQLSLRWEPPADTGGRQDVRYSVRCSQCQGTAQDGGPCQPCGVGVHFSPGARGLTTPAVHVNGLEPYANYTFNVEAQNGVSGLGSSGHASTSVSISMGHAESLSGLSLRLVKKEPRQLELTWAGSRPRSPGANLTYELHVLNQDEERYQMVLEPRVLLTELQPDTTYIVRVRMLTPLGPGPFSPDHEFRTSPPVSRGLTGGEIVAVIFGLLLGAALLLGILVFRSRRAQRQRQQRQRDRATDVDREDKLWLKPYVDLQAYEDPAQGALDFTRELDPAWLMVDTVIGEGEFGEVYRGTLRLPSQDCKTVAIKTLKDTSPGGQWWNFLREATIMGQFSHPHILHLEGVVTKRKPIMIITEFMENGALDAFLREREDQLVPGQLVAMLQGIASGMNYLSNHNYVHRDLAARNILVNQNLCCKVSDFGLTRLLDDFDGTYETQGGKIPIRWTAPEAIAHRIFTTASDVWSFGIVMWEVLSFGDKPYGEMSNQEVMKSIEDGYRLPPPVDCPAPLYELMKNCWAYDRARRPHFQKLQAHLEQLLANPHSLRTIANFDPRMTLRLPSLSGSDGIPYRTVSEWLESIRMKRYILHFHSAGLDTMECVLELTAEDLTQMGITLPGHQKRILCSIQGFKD
UniProt P11802, sequence (whole entry, looked up): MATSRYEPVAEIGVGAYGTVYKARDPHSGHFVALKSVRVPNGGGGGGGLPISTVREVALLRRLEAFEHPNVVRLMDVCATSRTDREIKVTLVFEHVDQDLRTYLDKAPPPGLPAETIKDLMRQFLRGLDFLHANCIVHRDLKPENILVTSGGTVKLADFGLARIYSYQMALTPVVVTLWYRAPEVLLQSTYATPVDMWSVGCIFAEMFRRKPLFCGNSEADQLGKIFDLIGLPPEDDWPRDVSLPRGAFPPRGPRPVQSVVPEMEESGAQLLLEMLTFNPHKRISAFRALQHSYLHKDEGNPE

Sample 1 — effect on: enzyme activity; mode: inhibitor; concentration: 0.5 µM; baseline: control; quantity: remaining activity
Target: cAMP-dependent protein kinase catalytic subunit PRKX (PRKX, Homo sapiens, UniProt P51817)
UniProt P51817, sequence (whole entry, looked up): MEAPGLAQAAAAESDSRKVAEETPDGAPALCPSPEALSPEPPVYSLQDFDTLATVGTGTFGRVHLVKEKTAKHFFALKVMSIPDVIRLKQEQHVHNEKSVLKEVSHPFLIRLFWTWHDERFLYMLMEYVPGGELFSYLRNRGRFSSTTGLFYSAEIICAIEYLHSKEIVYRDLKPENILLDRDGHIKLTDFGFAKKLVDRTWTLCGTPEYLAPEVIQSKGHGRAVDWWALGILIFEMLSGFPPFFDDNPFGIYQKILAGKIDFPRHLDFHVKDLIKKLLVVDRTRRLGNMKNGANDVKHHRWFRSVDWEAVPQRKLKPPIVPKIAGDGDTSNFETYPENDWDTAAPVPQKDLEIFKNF
Nc1ncnc2n[nH]c(Nc3ccc(F)cc3)c12: 90.4%
Cn1c2ccccc2c2c3c(c4c5ccccc5n(CCC#N)c4c21)CNC3=O: 60.1%
Nc1[nH]nc2nc3ccccc3nc12: 102%
CO[C@H]1C[C@@H]2CC[C@@H](C)[C@@](O)(O2)C(=O)C(=O)N2CCCC[C@H]2C(=O)O[C@H]([C@H](C)C[C@@H]2CC[C@@H](O)[C@H](OC)C2)CC(=O)[C@H](C)/C=C(\C)[C@@H](O)[C@@H](OC)C(=O)[C@H](C)C[C@H](C)/C=C/C=C/C=C/1C: 95.6%
O=C(O)c1ccc2c3c1cccc3c(=O)n1c3ccccc3nc21: 93.7%
COc1cc2nccc(Oc3ccc(NC(=S)NC(=O)c4ccccc4C)cc3)c2cc1OC: 100%
Cn1sc(=O)n(Cc2ccccc2)c1=O: 102%
Cc1nc(-c2ccccc2)c(-c2ccncc2)o1: 101%
O=S(=O)(c1cccc2cnccc12)N1CCCNCC1: 23.5%
O=C1NC(=O)C(c2cn(CCCn3ccnc3)c3ccccc23)=C1Nc1ccccc1: 95.5%
CNC(=O)c1cc(Oc2ccc(NC(=O)Nc3ccc(Cl)c(C(F)(F)F)c3)cc2)ccn1: 97.7%
NCCNc1ncc(C(N)=O)c(Nc2cccc(C(F)(F)F)c2)n1: 90.5%
Cc1ccc(Nc2nccc(N(C)c3ccc4c(C)n(C)nc4c3)n2)cc1S(N)(=O)=O: 101%
COc1ccc(CNC(=O)Nc2ncc([N+](=O)[O-])s2)cc1: 72.1%
O=C(Nc1cccc(Nc2cc(Nc3cccc(C(F)(F)F)c3)ncn2)c1)C1CC1: 107%

Sample 2 — technique: LC-MS/MS; species: human; matrix: plasma; route: oral; quantity: Tlast
SMILES: COc1ccc(-c2c(Nc3ccccn3)[nH]c3c(C4=CCCCC4)c(-c4ccccc4)nn3c2=O)cc1
150 mg once daily: 24 h
50 mg once daily: 24 h
400 mg once daily: 24 h

Sample 3 — technique: trypan blue exclusion; time: 48 h; baseline: untreated; quantity: viability
SMILES: O=C(NC1CCNCC1)c1n[nH]cc1NC(=O)c1c(Cl)cccc1Cl
HH; 0.05 µM: 97.5% and 102%
HuT78; 0.001 µM: 104% and 102%
HH; 0.01 µM: 100% and 101%
HuT78; 0.01 µM: 106%
HH; 0.5 µM: 22.6% and 21.3%

Sample 4 — effect on: cell-free assay; technique: competition with immobilised ligand; concentration: 1 µM; quantity: remaining binding
SMILES: CO[C@@H](C)c1c(Nc2ccc([C@H](N(C)C(=O)C3CCS(=O)(=O)CC3)C(F)(F)F)cc2)cnc2cc(Cl)nn12
TEK (Homo sapiens, UniProt Q02763): 84%
FES (Homo sapiens, UniProt P07332): 100%
EPHA1 (Homo sapiens, UniProt P21709): 100%
MAP2K4 (Homo sapiens, UniProt P45985): 100%
Cyclin-dependent kinase 4, with cyclin D3 (CDK4, Homo sapiens, UniProt P11802): 100%
NEK1 (Homo sapiens, UniProt Q96PY6): 94%
MAP3K5 (Homo sapiens, UniProt Q99683): 84%

Further values, each from its own experiment — concentration: 100 µM; time: 60 h
COc1ccc(-c2coc3cc(O)ccc3c2=O)cc1
viability (HaCaT): 88.3%

CC(=O)OCC(=O)NCCCOc1cccc(CN2CCCCC2)c1
viability (HaCaT): 143%

O=C(CCNNC(=O)c1ccncc1)NCc1ccccc1
viability (HaCaT): 135%

CCC(CC)[C@H](NC(C)=O)[C@@H]1[C@H](O)[C@@H](C(=O)O)C[C@H]1NC(=N)N
viability (A-375): 104%

A few entries again (sample 4):
NEK1 (Homo sapiens, UniProt Q96PY6): 94%
FES (Homo sapiens, UniProt P07332): 100%
Cyclin-dependent kinase 4, with cyclin D3 (CDK4, Homo sapiens, UniProt P11802): 100%
MAP3K5 (Homo sapiens, UniProt Q99683): 84%
MAP2K4 (Homo sapiens, UniProt P45985): 100%
